Results from different studies.
Numbered parts are unrelated; each lists some results of a single study.

Series 1
Organism: SARS-CoV-2 Wuhan spike VSV pseudovirus
Read-out: pseudovirus entry
Concentration: 10 µM
SMILES | inhibition [%]
CCCCn1c(N)c(C#N)c2nc3ccccc3nc21 | 85
CC(=O)Nc1ccc(Cl)c(C(=O)N(C)CCCN2CCCCCC2)c1 | 99
O=C(CC1=CCCCC1)N1C[C@@H](CO)[C@H](c2nc(C3CC3)no2)C1 | 85
COCCc1nc2ccc(C(=O)N3CCCC3c3nc4ccc(C)cc4[nH]3)cc2o1 (stereo not drawn) | 66
COC1=C2C[C@@H](C)C[C@H](OC)[C@H](O)[C@@H](C)/C=C(\C)[C@H](OC(N)=O)[C@@H](OC)/C=C\C=C(/C)C(=O)NC(=CC1=O)C2=O | 77
Cn1cc(CN2CCN(Cc3nccn3C)CC2)c(-c2ccc3c(c2)OCCO3)n1 | 86

Single results of other studies
rep nsp12 RdRp: Replicase polyprotein 1ab, nsp12 RdRp (rep, Severe acute respiratory syndrome coronavirus 2, UniProt P0DTD1)
rep nsp14: Replicase polyprotein 1ab, nsp14 (rep, Severe acute respiratory syndrome coronavirus 2, UniProt P0DTD1)
rep papain-like protease: Replicase polyprotein 1ab, papain-like protease (rep, Severe acute respiratory syndrome coronavirus 2, UniProt P0DTD1)
Structure (SMILES) | target | assay | conditions | scale | measurement | value
O=C(NCc1ccc(S(=O)(=O)c2cc(F)cc(F)c2)cc1)c1ccc2nccn2c1 | rep nsp12 RdRp | binding, biolayer interferometry | concentration not given |  | BLI response | 0 nm
O=C(NC1CCN(c2ncnc3[nH]cnc23)CC1)c1cccc(S(=O)(=O)N2CCCCC2)c1 | rep nsp14 | NSP14 enzyme activity, inhibitor | 12.5 µM |  | inhibition | 58.2%
COc1ccc(-c2cc(=O)c3c(OC)cc(OC)c(OC)c3o2)cc1OC | rep papain-like protease |  | concentration not given, C111S mutant | reference: positive control | activity | 17.4%
Nc1ncnc2c1ncn2[C@@H]1O[C@H](CSCC[C@H](N)C(=O)O)[C@@H](O)[C@H]1O | rep nsp14 | thermal shift | 3.7 µM |  | ΔTm | 1.7 °C
O=C(Nc1nc(-c2ccc(O)c(O)c2)c(-c2ccccc2)s1)c1ccc(O)c(O)c1 | rep nsp12 RdRp | binding, biolayer interferometry | concentration not given |  | BLI response | 0.8 nm
CC(C)(F)C[C@H](N[C@@H](c1ccc(-c2ccc(S(C)(=O)=O)cc2)cc1)C(F)(F)F)C(=O)NC1(C#N)CC1 | rep papain-like protease |  | concentration not given, C111S mutant | reference: positive control | activity | 21.4%

Repeated from above (series 1):
SMILES | inhibition [%]
Cn1cc(CN2CCN(Cc3nccn3C)CC2)c(-c2ccc3c(c2)OCCO3)n1 | 86
